{"data": "Experimental data of several laboratories", "note": "Each line is one published result; not all experiments were run side by side. “And” joins repeats or separate records; there may be more than shown. Numbers after ± are the reported error.", "chain of UniProt P21917 (whole entry, looked up)": "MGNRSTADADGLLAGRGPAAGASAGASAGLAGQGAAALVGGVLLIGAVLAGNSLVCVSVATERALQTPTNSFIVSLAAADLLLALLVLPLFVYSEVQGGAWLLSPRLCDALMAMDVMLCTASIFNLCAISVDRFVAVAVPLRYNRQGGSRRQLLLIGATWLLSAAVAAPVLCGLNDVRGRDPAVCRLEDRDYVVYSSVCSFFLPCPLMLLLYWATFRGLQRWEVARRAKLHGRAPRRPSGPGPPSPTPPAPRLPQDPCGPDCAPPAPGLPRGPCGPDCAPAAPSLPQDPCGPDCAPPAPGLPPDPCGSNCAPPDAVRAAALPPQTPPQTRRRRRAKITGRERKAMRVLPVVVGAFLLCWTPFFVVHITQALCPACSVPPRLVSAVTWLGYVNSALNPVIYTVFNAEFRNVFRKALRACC", "chain of UniProt Q8WZ82 (whole entry, looked up)": "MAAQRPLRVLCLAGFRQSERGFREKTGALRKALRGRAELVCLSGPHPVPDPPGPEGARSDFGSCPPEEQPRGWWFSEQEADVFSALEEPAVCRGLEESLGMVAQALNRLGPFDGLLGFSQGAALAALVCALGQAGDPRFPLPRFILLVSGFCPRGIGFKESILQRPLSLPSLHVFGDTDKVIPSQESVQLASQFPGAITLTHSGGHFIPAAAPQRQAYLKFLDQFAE", "chain of UniProt P49840 (whole entry, looked up)": "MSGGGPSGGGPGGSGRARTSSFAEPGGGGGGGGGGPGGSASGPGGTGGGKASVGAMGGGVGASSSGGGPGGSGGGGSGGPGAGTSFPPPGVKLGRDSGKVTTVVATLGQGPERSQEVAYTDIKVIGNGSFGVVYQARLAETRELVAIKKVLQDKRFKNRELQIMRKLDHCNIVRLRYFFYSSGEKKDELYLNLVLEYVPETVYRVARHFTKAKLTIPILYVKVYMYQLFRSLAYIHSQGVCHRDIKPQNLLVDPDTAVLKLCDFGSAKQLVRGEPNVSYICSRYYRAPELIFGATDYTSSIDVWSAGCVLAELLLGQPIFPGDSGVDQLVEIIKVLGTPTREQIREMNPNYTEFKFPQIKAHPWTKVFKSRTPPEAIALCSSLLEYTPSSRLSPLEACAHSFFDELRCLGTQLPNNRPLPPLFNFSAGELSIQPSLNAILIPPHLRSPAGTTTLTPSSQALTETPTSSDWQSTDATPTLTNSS", "chain of UniProt Q16531 (whole entry, looked up)": "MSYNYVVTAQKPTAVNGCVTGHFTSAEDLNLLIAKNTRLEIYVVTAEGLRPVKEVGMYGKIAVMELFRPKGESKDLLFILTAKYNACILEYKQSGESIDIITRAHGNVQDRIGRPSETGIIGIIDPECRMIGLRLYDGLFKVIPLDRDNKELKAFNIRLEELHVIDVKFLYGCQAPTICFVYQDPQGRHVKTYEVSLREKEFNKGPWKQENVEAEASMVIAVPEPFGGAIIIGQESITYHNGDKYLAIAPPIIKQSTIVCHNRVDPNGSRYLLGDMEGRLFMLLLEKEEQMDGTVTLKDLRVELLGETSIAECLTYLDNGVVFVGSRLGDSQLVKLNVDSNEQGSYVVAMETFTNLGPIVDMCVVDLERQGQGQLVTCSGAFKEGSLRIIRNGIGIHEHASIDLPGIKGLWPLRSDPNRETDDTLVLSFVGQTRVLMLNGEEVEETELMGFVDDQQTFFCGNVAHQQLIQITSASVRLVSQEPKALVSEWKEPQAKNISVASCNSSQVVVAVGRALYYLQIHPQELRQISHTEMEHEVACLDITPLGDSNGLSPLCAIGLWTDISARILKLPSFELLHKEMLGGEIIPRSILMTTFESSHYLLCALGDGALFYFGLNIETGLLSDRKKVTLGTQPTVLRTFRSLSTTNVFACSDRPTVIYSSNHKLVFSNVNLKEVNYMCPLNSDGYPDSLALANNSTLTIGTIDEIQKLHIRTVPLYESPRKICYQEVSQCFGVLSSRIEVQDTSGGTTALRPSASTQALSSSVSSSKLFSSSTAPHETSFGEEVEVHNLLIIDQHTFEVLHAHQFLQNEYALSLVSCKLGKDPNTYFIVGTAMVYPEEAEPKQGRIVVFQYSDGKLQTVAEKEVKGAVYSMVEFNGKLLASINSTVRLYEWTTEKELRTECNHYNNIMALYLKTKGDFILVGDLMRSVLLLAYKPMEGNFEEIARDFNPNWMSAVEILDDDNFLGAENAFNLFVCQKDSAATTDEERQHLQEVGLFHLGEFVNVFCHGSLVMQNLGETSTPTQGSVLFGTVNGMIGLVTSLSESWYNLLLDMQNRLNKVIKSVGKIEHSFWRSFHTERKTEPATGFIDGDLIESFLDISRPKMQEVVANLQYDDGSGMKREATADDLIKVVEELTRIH"}
{"Compound": "CC[C@H](C)[C@@H]1NC(=O)[C@@H]2CCCN2C(=O)[C@H](CC(C)C)NC(=O)[C@H](CC(C)C)NC(=O)CNC(=O)[C@@H](NC(=O)[C@@H](NC(=O)[C@H](CC(=O)O)NC(=O)CNC(=O)[C@@H](NC(=O)[C@H](C)NC(=O)CNC(=O)[C@H](CCCCN)NC(=O)[C@H](CC(C)C)NC(=O)[C@H](CC(C)C)NC(=O)[C@H](CCCCN)NC(=O)CNC(=O)[C@@H](NC(=O)[C@@H](N)CC(C)C)C(C)C)C(C)C)C(C)C)CSSC[C@@H](C(=O)O)NC1=O", "test": "RNA-seq, measured: Bdkrb2", "system": "mouse, traumatic brain injury model, frontal cortex and hippocampus", "setting": "dose not given", "scale": "reference: TBI alone", "measurement": "log2 fold change", "result": -1.81}
{"Compound": "O=C(c1ccc(Cl)cc1)N1CCN2C(=O)N(OC(=O)N3CCOc4ccccc43)C(=O)C2C1 (stereo not shown)", "tested on": "OVCA2 (Homo sapiens, UniProt Q8WZ82)", "test": "enzyme activity, inhibitor, MS-based ABPP", "system": "SW-620 conditioned medium", "setting": "10 µM, 1 h, 37 °C", "scale": "reference: compound over DMSO, lower = stronger inhibition", "measurement": "median ratio", "result": 1.57}
{"Compound": "[131I-].[Na+]", "test": "ATA response criteria", "system": "human, papillary thyroid cancer, distant metastases", "setting": "3700 MBq", "measurement": "indeterminate response", "result": "16.5%"}
{"Compound": "CC[C@@H](C)[C@@H](NC(=O)[C@@H](Cc1ccc(O)cc1)NC(=O)[C@H]1CCCN1C(=O)[C@@H](CCCNC(=N)N)NC(=O)[C@H](N)Cc1c[nH]cn1)C(=O)N[C@H](C)C(=O)N[C@H](Cc1c[nH]cn1)C(=O)N[C@H](CCCNC(=N)N)C(=O)N[C@H](CCCCNC(=O)c1cccc(S(=O)(=O)F)c1)C(=O)N[C@H](Cc1ccc(O)cc1)C(=O)N[C@H](CO)C(=O)N[C@H](Cc1ccccc1)C(N)=O", "test": "ex vivo flow cytometry", "system": "GL261-Luc brain tumour mice, tumour", "setting": "dose not given", "measurement": "IFN-γ+ CD8+ T cell frequency", "result": "19.3% and 15.1% and 14.3%"}
{"Compound": "C[C@@H](O)[C@@H](CO)NC(=O)[C@@H](CCCNC(=N)N)NC(=O)[C@@H]1CCCN1C(=O)[C@@H]1CSSC[C@H](NC(=O)[C@H](Cc2ccccc2)NC(=O)CN2CCN(CC(=O)O)CCN(CC(=O)O)CCN(CC(=O)O)CC2)C(=O)N[C@@H](Cc2ccc(O)cc2)C(=O)N[C@@H](Cc2ccccc2)C(=O)N[C@@H](CCC(N)=O)C(=O)N[C@@H](CC(N)=O)C(=O)N1 [gallium-68 labelled]", "system": "healthy Wistar rat, stomach", "setting": "intravenous, 8 MBq, 30 min, individual animals", "measurement": "tissue uptake", "result": "0.36 %ID/g"}
{"Compound": "C[C@H]1O[C@@H](O[C@H]2CC[C@@]3(C)[C@@H](CC[C@]4(C)[C@@H]3C=C[C@]35OC[C@@]6(CCC(C)(C)C[C@H]63)[C@@H](O)C[C@]54C)[C@]2(C)CO)[C@H](O)[C@@H](O[C@@H]2O[C@H](CO)[C@@H](O)[C@H](O)[C@H]2O)[C@H]1O", "test": "H&E staining", "system": "hepatic SIRT1 knockdown mice, no ethanol, liver", "setting": "dose not given, AAV8-TBG-shRNA, high dose", "measurement": "steatosis area", "result": "14.9% and 11.1% and 8.68% and 11.6% and 12.5% and 10.6%"}
{"Compound": "Cc1cn(-c2cc(NC(=O)c3ccc(C)c(Nc4nccc(-c5cccnc5)n4)c3)cc(C(F)(F)F)c2)cn1", "system": "human patients", "setting": "dose not given, 6 months vs baseline, within treated group", "scale": "reference: baseline, direction not given", "measurement": "ADAS-Cog score change", "result": 4.1}
{"Compound": "COc1cc(Nc2ncc(F)c(Nc3ccc4c(n3)NC(=O)C(C)(C)O4)n2)cc(OC)c1OC", "tested on": "D(4) dopamine receptor (DRD4, Homo sapiens, UniProt P21917)", "measurement": "IC50", "result": "> 10 µM"}
{"Compound": "C[C@]12CC[C@H](O)C[C@H]1CC[C@@H]1[C@@H]2CC[C@]2(C)[C@@H](c3ccc(=O)oc3)CC[C@]12O", "system": "female nude mouse LCC2 xenograft", "setting": "1.0 mg/kg, day 1, tamoxifen-resistant", "measurement": "tumour volume", "result": "22.4 mm3 and 34.1 mm3 and 16.1 mm3 and 19.8 mm3 and 28 mm3 and 16.9 mm3 and 34 mm3"}
{"Compound": "CSCC[C@@H]1NC(=O)[C@H](Cc2c[nH]c3ccccc23)NC(=O)[C@@H](NC(=O)CCNC(=O)[C@H](CCC(N)=O)NC(=O)[C@@H]2CCCN2C(=O)[C@@H]2CCCN2C(=O)[C@H](CCCNC(=N)N)NC(=O)[C@H](CCCNC(=N)N)NC(=O)[C@H](CCCNC(=N)N)NC(=O)[C@H](CCC(N)=O)NC(=O)[C@H](CCCNC(=N)N)NC(=O)[C@H](CCCNC(=N)N)NC(=O)[C@H](CCCCN)NC(=O)[C@H](CCCCN)NC(=O)[C@H](CCCNC(=N)N)NC(=O)CN)CSSC[C@@H](C(=O)O)NC(=O)[C@H]([C@@H](C)O)NC(=O)CNC(=O)[C@H](CC(C)C)NC(=O)[C@H](Cc2c[nH]cn2)NC(=O)[C@H](CCCNC(=N)N)NC(=O)[C@@H]2CCCN2C(=O)[C@H](CO)NC1=O", "test": "immunohistochemistry", "system": "NCI-H226 xenograft mouse, tumour tissue", "setting": "intravenous, 10 mg/kg, day 16", "measurement": "CDC37 staining", "result": "0.11 IOD/area"}
{"Compound": "O=S(=O)([O-])C(F)(F)C(F)(F)C(F)(F)C(F)(F)C(F)(F)C(F)(F)C(F)(F)C(F)(F)F.[K+]", "test": "Western blot, measured: Cyp4a10", "system": "pair-fed mice, liver", "setting": "dose not given", "measurement": "protein expression", "result": "increased"}
{"Compound": "CCCCCCCCCCCCCCCCCCOCC(COP(=O)([O-])OCC[N+](C)(C)C)OC (stereo not shown)", "test": "calcium response, decay phase", "system": "N2a, mouse", "setting": "10 µM, together with: BzATP 300 µM", "measurement": "inhibition", "result": "63%"}
{"Compound": "CN1CCN(S(=O)(=O)c2cc([N+](=O)[O-])ccc2N(CCOS(C)(=O)=O)CCOS(C)(=O)=O)CC1", "system": "NSG mice, sample BE PDX", "setting": "intraperitoneal, 25 mg/kg weekly x3", "measurement": "event-free survival", "result": "> 372 days"}
{"Compound": "CCCCC1(CCCC)CN(c2ccccc2)c2cc(SC)c(OCC(=O)N[C@@H](C(=O)NCC(=O)O)c3ccccc3)cc2S(=O)(=O)C1", "test": "measured: LDL cholesterol", "system": "human, serum", "setting": "20 mg once daily, day 14", "measurement": "serum LDL-C", "result": "75.3 mg/dL"}
{"Compound": "FC(F)(F)c1ccc2c(c1)[C@@H]1CNC[C@H]2C1", "test": "intermittent two-bottle choice", "system": "Wistar rat, 20% ethanol drinking", "setting": "subcutaneous, 1 mg/kg, 6 h", "scale": "reference: ethanol over total fluid intake", "measurement": "ethanol preference", "result": "46 ± 3%"}
{"Compound": "Cc1nc(Nc2ccc(CC(=O)O)cc2)nc(Nc2ccc(F)c(C(F)(F)F)c2)c1C", "test": "measured: UCP1", "system": "mice, chronic ethanol plus binge, brown adipose tissue", "setting": "intraperitoneal, 0.3 mg/kg daily, ethanol diet 4 weeks, dosed last two", "scale": "reference: vehicle", "measurement": "protein level", "result": "increased"}
{"Compound": "NC1C2CC3CC(C2)CC1C3 (stereo not shown)", "test": "pH gradient", "system": "Escherichia coli inverted membrane vesicles", "measurement": "IC50", "result": "> 1000 µM"}
{"Compound": "COc1cc(CCC[P+](c2ccccc2)(c2ccccc2)c2ccccc2)c(OC)c2c1OCO2.[I-]", "tested on": "MOLT-4", "test": "SRB", "measurement": "LC50", "result": "> -4 log M"}
{"Compound": "NNc1ccccc1", "test": "hydrazine ligation kinetics, absorbance", "setting": "concentration not given, 35 s, together with: 2-formylphenylboronic acid", "measurement": "normalised absorbance", "result": 0.899}
{"Compound": "COc1c(CCC[P+](c2ccccc2)(c2ccccc2)c2ccccc2)cc2c(c1OC)OCO2.[I-]", "tested on": "HT-29", "test": "SRB", "measurement": "TGI", "result": "-4.72 log M"}
{"Compound": "CCCCC1CNC2CCc3ccc(OC)cc3C12.Cl (racemic)", "test": "RNA sequencing, measured: complex I subunit genes", "system": "SAMP8 mice, hippocampus", "setting": "intracerebroventricular, 1.0 µg/µL, 24 h", "scale": "reference: vehicle", "measurement": "mRNA level", "result": "increased"}
{"Compound": "CNC(=O)c1c(C)oc2cc(Oc3ccnc4cc(OCCN5CCOCC5)ccc34)ccc12", "test": "response or stable disease ≥4 cycles, RECIST 1.0", "system": "patients with advanced solid tumours", "setting": "dose not given, twice daily dosing", "measurement": "disease control rate", "result": "64%"}
{"Compound": "COc1ccc(N2C(=O)N(c3c(C)cccc3Cl)Cc3cnc(Nc4ccc(C5CCN(C)CC5)cc4OC)nc32)nc1", "tested on": "Glycogen synthase kinase-3 alpha (GSK3A, Homo sapiens, UniProt P49840)", "test": "kinase activity, inhibitor", "setting": "0.5 µM, kinase GSK-3-ALPHA", "measurement": "inhibition", "result": "8%"}
{"Compound": "C[C@H]1CN(c2n[nH]c3nc(N[C@H]4CC[C@H](NS(=O)(=O)CCC(F)(F)F)CC4)ncc23)CCO1", "tested on": "DNA damage-binding protein 1 (DDB1, Homo sapiens, UniProt Q16531)", "test": "inhibitor, Kinobeads competition profiling", "setting": "0.8 µM", "scale": "reference: vehicle", "measurement": "relative abundance", "result": 1.38}
{"Compound": "CC(C)C1CCC(N2CCC(N3C(=O)C(=O)c4ccccc43)CC2)CC1 (stereo not shown)", "system": "conscious Sprague-Dawley rat", "setting": "intravenous bolus, 100 nmol/kg", "measurement": "heart rate", "result": "decreased"}
{"Compound": "CO[C@H]1C[C@@H]2CC[C@@H](C)[C@@](O)(O2)C(=O)C(=O)N2CCCC[C@H]2C(=O)O[C@H]([C@H](C)C[C@@H]2CC[C@@H](OC(=O)NCCOCCOCCOCCOCCOCCOCCOCCOCCC(=O)N3CCc4cc(Cn5nc(-c6ccc7oc(N)nc7c6)c6c(N)ncnc65)ccc4C3)[C@H](OC)C2)C[C@@H](O)[C@H](C)/C=C(\\C)[C@@H](O)[C@@H](OC)C(=O)[C@H](C)C[C@H](C)/C=C/C=C/C=C/1C", "test": "phase 1 dose escalation", "system": "advanced solid tumour patients", "setting": "intravenous, 12 mg weekly, any grade", "measurement": "any TEAE incidence", "result": "100%"}
{"Compound": "CC[C@H](C)[C@H](NC(=O)[C@H](Cc1ccccc1)NC(=O)[C@H](CCC(=O)O)NC(=O)[C@H](CCCNC(=N)N)NC(=O)[C@H](C)NC(=O)[C@H](C)NC(=O)[C@H](CCC(N)=O)NC(=O)[C@H](CCC(=O)O)NC(=O)[C@H](CCC(=O)O)NC(=O)[C@H](CC(C)C)NC(=O)[C@H](Cc1ccc(O)cc1)NC(=O)[C@H](CO)NC(=O)[C@H](CO)NC(=O)[C@@H](NC(=O)[C@H](CC(=O)O)NC(=O)[C@H](CO)NC(=O)[C@@H](NC(=O)[C@H](Cc1ccccc1)NC(=O)[C@@H](NC(=O)CNC(=O)[C@H](CCC(=O)O)NC(=O)[C@H](C)NC(=O)CCc1c[nH]cn1)[C@@H](C)O)[C@@H](C)O)C(C)C)C(=O)N[C@@H](C)C(=O)N[C@@H](Cc1c[nH]c2ccccc12)C(=O)N[C@@H](CC(C)C)C(=O)N[C@H](C(=O)N[C@@H](CCCNC(=N)N)C(=O)NCC(=O)N[C@@H](CCCNC(=N)N)C(=O)N[C@@H](CCCCNC(=O)COCCOCCNC(=O)COCCOCCNC(=O)CC[C@H](NC(=O)CCCCCCCCCCCCCCCCC(=O)O)C(=O)O)C(=O)NCC(=O)NCC(=O)N[C@@H](CO)C(=O)N[C@@H](CCCCNc1c(NCCCCCN(O)C(=O)CCC(=O)NCCCCCN(O)C(=O)CCC(=O)NCCCCCN(O)C(C)=O)c(=O)c1=O)C(=O)O)C(C)C [zirconium-89 labelled]", "system": "rat, intestine content", "setting": "intravenous, 3 nmol/kg, 24 h", "measurement": "tissue uptake", "result": "0.07 %ID/g"}
{"Compound": "C[C@]1(CO)Cc2ncn(-c3ccc(C#N)c(Cl)c3)c2C(=O)O1", "test": "aldosterone synthesis, inhibitor, measured: cortisol", "system": "healthy Japanese adults, urine", "setting": "3 mg, 0-24 h after first dose, multiple rising dose", "measurement": "urinary excretion", "result": "73 mmol"}
{"note": "Repeated from above:"}
{"Compound": "COc1cc(CCC[P+](c2ccccc2)(c2ccccc2)c2ccccc2)c(OC)c2c1OCO2.[I-]", "tested on": "MOLT-4", "test": "SRB", "measurement": "LC50", "result": "> -4 log M"}
{"Compound": "NNc1ccccc1", "test": "hydrazine ligation kinetics, absorbance", "setting": "concentration not given, 35 s, together with: 2-formylphenylboronic acid", "measurement": "normalised absorbance", "result": 0.899}
{"Compound": "COc1c(CCC[P+](c2ccccc2)(c2ccccc2)c2ccccc2)cc2c(c1OC)OCO2.[I-]", "tested on": "HT-29", "test": "SRB", "measurement": "TGI", "result": "-4.72 log M"}
{"Compound": "CCCCC1CNC2CCc3ccc(OC)cc3C12.Cl (racemic)", "test": "RNA sequencing, measured: complex I subunit genes", "system": "SAMP8 mice, hippocampus", "setting": "intracerebroventricular, 1.0 µg/µL, 24 h", "scale": "reference: vehicle", "measurement": "mRNA level", "result": "increased"}
{"Compound": "CNC(=O)c1c(C)oc2cc(Oc3ccnc4cc(OCCN5CCOCC5)ccc34)ccc12", "test": "response or stable disease ≥4 cycles, RECIST 1.0", "system": "patients with advanced solid tumours", "setting": "dose not given, twice daily dosing", "measurement": "disease control rate", "result": "64%"}
